{"data": "Results gathered from unrelated publications", "note": "Numbered parts are unrelated; each lists some results of a single study."}
{"data": "Series 1", "SMILES": "O=C(Nc1ccc(Oc2ccc(F)cc2)cc1)N1CCc2ncccc2[C@H]1c1ccc(F)cc1", "observed": "cell-free assay", "method": "competition with immobilised ligand", "tested at": "1 µM"}
{"target": "HIPK1 (Homo sapiens, UniProt Q86Z02)", "remaining binding [%]": 96}
{"target": "PIK3CA (Homo sapiens, UniProt P42336, H1047Y)", "remaining binding [%]": 100}
{"target": "EGFR (Homo sapiens, UniProt P00533, L861Q)", "remaining binding [%]": 83}
{"target": "EGFR (Homo sapiens, UniProt P00533, G719S)", "remaining binding [%]": 74}
{"target": "RAF1 (Homo sapiens, UniProt P04049)", "remaining binding [%]": 100}
{"target": "DYRK1A (Homo sapiens, UniProt Q13627)", "remaining binding [%]": 95}
{"target": "MET (Homo sapiens, UniProt P08581)", "remaining binding [%]": 100}
{"target": "CSNK1A1 (Homo sapiens, UniProt P48729)", "remaining binding [%]": 97}
{"target": "AKT1 (Homo sapiens, UniProt P31749)", "remaining binding [%]": 95}
{"target": "PRKG1 (Homo sapiens, UniProt Q13976)", "remaining binding [%]": 91}
{"target": "KIT (Homo sapiens, UniProt P10721, V559D/V654A)", "remaining binding [%]": 90}
{"target": "PIK3CD (Homo sapiens, UniProt O00329)", "remaining binding [%]": 93}
{"target": "STK3 (Homo sapiens, UniProt Q13188)", "remaining binding [%]": 94}
{"target": "KIT (Homo sapiens, UniProt P10721, A829P)", "remaining binding [%]": 100}
{"target": "MAP3K14 (Homo sapiens, UniProt Q99558)", "remaining binding [%]": 61}
{"target": "DCLK3 (Homo sapiens, UniProt Q9C098)", "remaining binding [%]": 93}
{"target": "Tyrosine-protein kinase ABL1, non-phosphorylated (ABL1, Homo sapiens, UniProt P00519, H396P)", "remaining binding [%]": 98}
{"target": "YES1 (Homo sapiens, UniProt P07947)", "remaining binding [%]": 100}
{"data": "Series 2", "target": "RAC-alpha serine/threonine-protein kinase (AKT1, Homo sapiens, UniProt P31749)", "observed": "enzyme activity", "mode": "inhibitor", "tested at": "0.5 µM", "relative to": "control"}
{"Compound": "CC#CC(=O)Nc1cc2c(Nc3ccc(F)c(Cl)c3)ncnc2cn1", "remaining activity": "98.1%"}
{"Compound": "O=C1NC(=O)C(c2c[nH]c3ccccc23)=C1c1c[nH]c2ccccc12", "remaining activity": "87.7%"}
{"Compound": "Cc1ccc(NC2=CC(=O)c3sc(C)nc3C2=O)cc1", "remaining activity": "83.3%"}
{"Compound": "CSc1nc(-c2ccnc(N[C@@H](C)c3ccccc3)c2)c(-c2ccc(F)cc2)[nH]1 (racemic)", "remaining activity": "101%"}
{"Compound": "Oc1ccc(Nc2nc(-c3ccc(Cl)cc3)cs2)cc1", "remaining activity": "106%"}
{"Compound": "CC[n+]1c(/C=C/N(C)c2ccccc2)n(-c2ccccc2)c2ccc(-c3nc4ccccc4s3)cc21", "remaining activity": "104%"}
{"Compound": "O=C1Cc2c([nH]c3ccc([N+](=O)[O-])cc23)-c2ccccc2N1", "remaining activity": "107%"}
{"Compound": "COc1cc(Nc2c(C#N)cnc3cc(OCCCN4CCN(C)CC4)c(OC)cc23)c(Cl)cc1Cl", "remaining activity": "94.4%"}
{"data": "Series 3", "organism": "Sarcocystis neurona", "observed": "parasite growth", "tested at": "10 µM", "time": "96 h", "notes": "first screen", "relative to": "untreated"}
{"SMILES": "C[C@H](CCC(=O)O)[C@H]1CC[C@H]2[C@@H]3C(=O)C[C@@H]4CC(=O)CC[C@]4(C)[C@H]3CC(=O)[C@]12C", "log2 fold change": -0.14}
{"SMILES": "CCN(CC)CC1CCCCN1CC(=O)N1c2ccccc2C(=O)Nc2cccnc21 (centres unmarked)", "log2 fold change": 0.0237}
{"SMILES": "O=C1N[C@H](C(=O)O)CS1", "log2 fold change": 0.16}
{"SMILES": "OCc1cc(C(O)CNCCCCCCOCCCCc2ccccc2)ccc1O (centres unmarked)", "log2 fold change": -0.49}
{"SMILES": "Oc1ccc(/C=C/c2cc(O)cc(O)c2)cc1", "log2 fold change": 0.14}
{"SMILES": "C[C@H]1C[C@@H]2[C@H]([C@@H](O)C[C@@]3(C)[C@H]2CC[C@]3(O)C(=O)CO)[C@@]2(C)C=CC(=O)C=C12", "log2 fold change": 0.19}
{"data": "Series 4", "species": "mouse", "medium": "microsomes or S9", "tested at": "2 µM", "time": "0.5 h"}
{"SMILES": "Cc1ccc(S(=O)(=O)n2cc(Br)c3c(N4CCC(O)CC4)ncnc32)cc1", "remaining compound [%]": 2.53}
{"SMILES": "CC(C)N(C(=O)COC(=O)c1ccc(C(C)(C)C)cc1)C(C)C", "remaining compound [%]": "< 1"}
{"SMILES": "Nc1c(NC(=O)N2CCCC2)c(-c2ccc(Cl)cc2)nn1-c1cc(F)ccc1F", "remaining compound [%]": 76.7}
{"SMILES": "Cc1cccc(-n2nc(-c3cnn(C)c3C)c(Cl)c2-c2cnn(C)c2C)c1", "remaining compound [%]": 2.74}
{"SMILES": "COc1ccc(C)cc1NC(=O)c1[nH]c(C)c(S(=O)(=O)N2CCCC2)c1C", "remaining compound [%]": "< 1"}
{"SMILES": "COCCCNC(=O)C(C)NS(=O)(=O)c1ccc(Br)cc1 (centres unmarked)", "remaining compound [%]": 50.9}
{"SMILES": "Cc1cc(-c2nnc(Cn3cnc4c3c(=O)n(C)c(=O)n4C)o2)c(C)o1", "remaining compound [%]": 33.6}
{"SMILES": "CC(C)S(=O)(=O)CCCn1cc(Br)ccc1=O", "remaining compound [%]": 81.1}
{"SMILES": "CCOC(=O)/C(=C/OC)n1c(COc2ccc(C)cc2C)noc1=O", "remaining compound [%]": 1.12}
{"note": "For quick reference, copied from above (series 4):"}
{"SMILES": "Cc1cccc(-n2nc(-c3cnn(C)c3C)c(Cl)c2-c2cnn(C)c2C)c1", "remaining compound [%]": 2.74}
{"SMILES": "CC(C)S(=O)(=O)CCCn1cc(Br)ccc1=O", "remaining compound [%]": 81.1}
{"SMILES": "Cc1ccc(S(=O)(=O)n2cc(Br)c3c(N4CCC(O)CC4)ncnc32)cc1", "remaining compound [%]": 2.53}
